Results from different studies.
Lines come from different studies, so protocols differ. Several values in a cell are separate wells, animals, samples, runs or records.
Target: MAP kinase-interacting serine/threonine-protein kinase 1 (MKNK1, Homo sapiens, UniProt Q9BUB5)

With `Nc1ncc2c(n1)-c1c([nH]c3ccc(C4=CCOCC4)cc13)CCC2` the remaining binding was 100% (binding, competition with immobilised ligand; 1 µM).
`CCN1CCN(Cc2ccc(C(=O)Nc3ccc(C)c(NCc4cnc5[nH]ccc5c4OC)c3)cc2C(F)(F)F)CC1` has a remaining binding of 51% (binding, competition with immobilised ligand; 1 µM).
`CNC1C[S+]2CC[S+]3CC[S+](C1)[Ru-4]321([N]=C=S)[n]2c3ccc(OC)cc3c3c4c(c5cc(F)c[n+]1c5c32)C(=O)NC4=O` (stereo not drawn) gave a remaining binding of 77% (KinomeScan; 0.1 µM; relative to: untreated).
The remaining binding of `C=CC(=O)N1CCCC(n2c(=O)c3ncccc3n(Cc3ccc(Oc4ccccc4)cc3)c2=O)C1` (stereo not drawn) is reported as 86% (cell-free assay, competition with immobilised ligand; 1 µM).
For `C=CC(=O)N1CCc2ccc(-n3c(=O)ccc4cnc5ccc(-c6cnn(C)c6)cc5c43)cc21`, the remaining binding was 100% (KINOMEscan; 1 µM; relative to: DMSO control).
`Cc1cccc(-c2ccc3nc(NC(=O)C4CCCO4)nn3c2)c1` (stereo not drawn) has a remaining activity of 80% (enzyme activity, Dundee kinase panel; 10 µM).
`CC(C)=CC1OC(C)(C)C2C=C3C(=O)C(Cl)=CC(O)C3C3C(O)C4OC4C(=O)C132` (stereo not drawn) has a remaining binding of 100% (cell-free assay, competition with immobilised ligand; 10 µM).
`CC(=O)N1c2ccc(-c3ccc(CNC(=O)c4cn5cc(-c6cnc(N)nc6)nc(N6CCOCC6)c5n4)cc3)cc2CC[C@@H]1C` gave a remaining binding of 94% (KINOMEscan; 10 µM).
With `C=CC(=O)Nc1cccc(-c2cnc3[nH]cc(C(=O)NC(C)(C)C)c3n2)c1` the inhibition was 6% and 10% (kinase activity; 0.1 µM).
`Cc1cccc(O[C@H]2CCC[C@@H](C(C)CNCc3ccncc3)C2)c1` (relative stereo) gave an inhibition of -7% (enzyme activity, inhibitor; 10 µM).
`COc1c(Cl)cccc1Nc1c(-c2ccncc2C#C[C@@]2(C)CCCN2C(=O)/C=C/CN(C)C)[nH]c2c1C(=O)NCC2` gave a remaining binding of 61% (binding, competition with immobilised ligand; 3 µM).
For `C=CC(=O)N1Cc2nc(-c3cc(-c4cc(Cl)cnc4Cl)c(F)cc3F)n(-c3ccncn3)c2C1`, the inhibition was 5% (cell-free assay, inhibitor; 1 µM).
The inhibition of `NC(=O)[C@@H](O)C[C@H]1CCc2sc3ncnc(O[C@H]4CC[C@H](N5CCOCC5)CC4)c3c21` is reported as -1% (enzyme activity, inhibitor; 10 µM).
For `CN1CCN(Cc2ccc(NC(=O)c3cccc(C#Cc4cnc(N)c5ncccc45)c3)cc2C(F)(F)F)CC1`, the remaining binding was 3.3% (cell-free assay, competition with immobilised ligand; 0.5 µM).
`Cc1ccc(-c2c(/C=C(\C#N)C(=O)NC(C)C)n(CCCO)c3ncnc(N)c23)cc1` gave a remaining binding of 73% (cell-free assay, competition with immobilised ligand; 1 µM).
The remaining binding of `COc1cc(Nc2nccc(-c3cnn4nc(OC)ccc34)n2)cc(C(F)(F)F)c1` is reported as 87% (binding, competition with immobilised ligand; 1 µM).
With `Cc1cccc(-c2ccc3nc(NC(=O)C4CCCCC4)nn3c2)c1` the remaining activity was 82% (enzyme activity, Dundee kinase panel; 10 µM).
With `CNC(=O)C1CCN(c2cc(C)c(F)cc2NC(=O)c2ccc(-c3cc(O)ccc3C)c(C)c2)CC1` the remaining binding was 93% (binding, competition with immobilised ligand; 1 µM).

Some of these lines once more:
`Cc1cccc(O[C@H]2CCC[C@@H](C(C)CNCc3ccncc3)C2)c1` (relative stereo) gave an inhibition of -7% (enzyme activity, inhibitor; 10 µM).
